# Assay results from different studies.
# Protocols differ between the studies behind these lines. ± gives the spread as reported.
# Cell line: HCT-116
SMILES,assay,setting,IC50
CO[C@@H]1[C@@H](O[C@@H]2O[C@H](C)[C@@H](O[C@H]3C[C@@](C)(O)[C@@H](O)[C@H](C)O3)[C@H](N(C)C)[C@H]2O)[C@@H](CC=O)C[C@@H](C)[C@@H](O[C@H]2CC[C@H](N(C)C)[C@@H](C)O2)/C=C/C=C/C[C@@H](C)OC(=O)C[C@H]1OC(=O)c1ccc(C(C)(C)C)cc1,"cell growth or viability, CCK-8",72 h,10.9 µM
CC(C)c1cccc(C(C)C)c1[N+]#[C][Pt-]([Cl])([Cl])=[C](Nc1ccc(CN[C](NC(C)(C)C)=[Au][Cl])cc1)Nc1c(C(C)C)cccc1C(C)C,cell growth or viability,,12 µM
COc1cc2c(cc1-c1coc3c(CC=C(C)C)c(OC)c(OC)cc3c1=O)OCO2,"cell growth or viability, MTT",72 h,23.2 µM
CC(C)Cn1cc(-c2ccnc(Nc3ccc(C(=O)Nc4ccccc4N)cc3)n2)nn1,"cell growth or viability, SRB",72 h,4.72 µM
O=C(NCCC#Cc1cc(Nc2nccc(-c3ccn([C@H](CO)c4ccc(Cl)c(F)c4)c(=O)c3)n2)ccn1)OC1CC/C=C/CCC1 (stereo partly drawn),"cell growth or viability, resazurin",96 h,1 µM
C=CC(=O)N1CCCC(n2c(=O)c3ncccc3n(Cc3ccc(Oc4ccccc4)cc3)c2=O)C1 (stereo not drawn),"cell growth or viability, MTT",,> 10 µM
O=C(NCCCCCCNc1n[n+]([O-])c2ccccc2[n+]1[O-])C(F)(F)F,"cytotoxicity, MTT","24 h, normoxia",110 ± 2.2 µM
CSc1nc(Nc2ccc(/C(C)=N/NC(=O)c3ccc([N+](=O)[O-])cc3[N+](=O)[O-])cc2)c(C#N)c(-c2ccccc2)n1,"cell growth or viability, MTT",48 h,1.14 µM
CC(=O)O[C@H]1CC[C@]2(C)[C@H]3CC=C4[C@@H]5[C@@H](C)[C@H](C)CC[C@]5(C)CC[C@@]4(C)[C@]3(C)CC[C@H]2C1(C)C,"cell growth or viability, resazurin",96 h,4.07 µg/mL
COc1cccc2cc(C(=O)NNc3nc(-c4ccccc4)cs3)c(=O)oc12,"cell growth or viability, SRB",72 h,193 µM
O=C(CCc1nc2cc(Cl)ccc2[nH]c1=O)Nc1ccc(Cl)cc1,"cell growth or viability, MTT",,62.2 µM
CO[C@@H]1[C@@H](O[C@@H]2O[C@H](C)[C@@H](O[C@H]3C[C@@](C)(O)[C@@H](OC(=O)CC(C)C)[C@H](C)O3)[C@H](N(C)C)[C@H]2O)[C@@H](CC=O)C[C@@H](C)[C@@H](O[C@H]2CC[C@H](N(C)C)[C@@H](C)O2)/C=C/C=C/C[C@@H](C)OC(=O)C[C@H]1O,"cell growth or viability, CCK-8",72 h,12.7 µM

# Excerpt of the above:
SMILES,assay,setting,IC50
CO[C@@H]1[C@@H](O[C@@H]2O[C@H](C)[C@@H](O[C@H]3C[C@@](C)(O)[C@@H](O)[C@H](C)O3)[C@H](N(C)C)[C@H]2O)[C@@H](CC=O)C[C@@H](C)[C@@H](O[C@H]2CC[C@H](N(C)C)[C@@H](C)O2)/C=C/C=C/C[C@@H](C)OC(=O)C[C@H]1OC(=O)c1ccc(C(C)(C)C)cc1,"cell growth or viability, CCK-8",72 h,10.9 µM
